Measured values pooled from the literature.
Each numbered part is a random draw from the data of one study; scales do not carry over between parts.
UniProt P53778, sequence (whole entry, looked up): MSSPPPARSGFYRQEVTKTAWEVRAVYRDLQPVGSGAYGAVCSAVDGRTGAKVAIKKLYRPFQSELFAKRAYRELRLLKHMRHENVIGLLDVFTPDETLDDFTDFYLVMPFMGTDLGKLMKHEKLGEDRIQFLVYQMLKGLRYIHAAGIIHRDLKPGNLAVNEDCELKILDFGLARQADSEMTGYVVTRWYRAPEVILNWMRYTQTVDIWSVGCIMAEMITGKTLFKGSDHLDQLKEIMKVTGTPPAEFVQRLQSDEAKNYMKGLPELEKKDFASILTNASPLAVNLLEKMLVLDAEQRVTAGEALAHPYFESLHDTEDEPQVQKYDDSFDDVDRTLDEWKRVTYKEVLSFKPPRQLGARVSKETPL
UniProt Q05655, sequence (whole entry, looked up): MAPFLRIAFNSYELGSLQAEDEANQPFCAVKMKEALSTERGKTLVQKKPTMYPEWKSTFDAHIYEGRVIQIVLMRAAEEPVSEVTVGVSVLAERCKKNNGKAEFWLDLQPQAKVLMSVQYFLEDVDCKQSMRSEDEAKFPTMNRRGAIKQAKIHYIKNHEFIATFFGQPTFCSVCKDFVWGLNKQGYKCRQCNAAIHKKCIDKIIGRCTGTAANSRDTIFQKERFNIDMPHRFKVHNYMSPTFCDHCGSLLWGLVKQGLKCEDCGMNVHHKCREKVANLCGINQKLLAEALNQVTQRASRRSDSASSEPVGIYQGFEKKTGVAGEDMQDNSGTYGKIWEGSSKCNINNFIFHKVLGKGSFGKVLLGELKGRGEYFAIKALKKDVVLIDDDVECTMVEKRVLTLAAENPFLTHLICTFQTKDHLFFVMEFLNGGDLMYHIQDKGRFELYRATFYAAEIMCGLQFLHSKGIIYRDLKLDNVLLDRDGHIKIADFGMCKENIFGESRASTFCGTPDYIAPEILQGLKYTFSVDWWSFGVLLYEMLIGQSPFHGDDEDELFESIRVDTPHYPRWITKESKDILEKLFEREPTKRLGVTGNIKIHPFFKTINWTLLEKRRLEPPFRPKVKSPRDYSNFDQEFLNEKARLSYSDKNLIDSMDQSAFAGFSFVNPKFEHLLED
UniProt Q96D53, sequence (whole entry, looked up): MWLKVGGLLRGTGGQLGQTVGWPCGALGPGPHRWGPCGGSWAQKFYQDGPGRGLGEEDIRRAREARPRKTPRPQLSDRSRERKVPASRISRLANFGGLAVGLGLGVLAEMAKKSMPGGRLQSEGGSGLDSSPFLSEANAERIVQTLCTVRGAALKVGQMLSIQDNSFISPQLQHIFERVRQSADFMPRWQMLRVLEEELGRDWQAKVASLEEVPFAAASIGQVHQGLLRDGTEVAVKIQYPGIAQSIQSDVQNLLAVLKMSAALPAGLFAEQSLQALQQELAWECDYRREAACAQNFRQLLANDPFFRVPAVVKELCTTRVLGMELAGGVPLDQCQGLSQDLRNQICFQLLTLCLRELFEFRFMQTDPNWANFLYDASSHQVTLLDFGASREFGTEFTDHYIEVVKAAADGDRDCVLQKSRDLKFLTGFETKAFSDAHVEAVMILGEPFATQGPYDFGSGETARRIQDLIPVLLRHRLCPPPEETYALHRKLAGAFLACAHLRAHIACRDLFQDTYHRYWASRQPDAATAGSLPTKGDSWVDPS
UniProt Q16539, sequence (whole entry, looked up): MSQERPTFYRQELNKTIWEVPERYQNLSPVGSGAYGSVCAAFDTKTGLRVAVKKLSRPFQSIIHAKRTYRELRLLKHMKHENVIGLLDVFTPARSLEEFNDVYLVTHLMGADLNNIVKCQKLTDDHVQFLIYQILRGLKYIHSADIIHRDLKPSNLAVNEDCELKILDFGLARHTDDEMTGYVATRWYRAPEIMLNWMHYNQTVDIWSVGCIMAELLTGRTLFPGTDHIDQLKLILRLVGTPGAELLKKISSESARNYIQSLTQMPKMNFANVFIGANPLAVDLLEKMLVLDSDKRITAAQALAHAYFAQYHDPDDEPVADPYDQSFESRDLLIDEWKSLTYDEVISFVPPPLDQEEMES
UniProt Q9BYT3, sequence (whole entry, looked up): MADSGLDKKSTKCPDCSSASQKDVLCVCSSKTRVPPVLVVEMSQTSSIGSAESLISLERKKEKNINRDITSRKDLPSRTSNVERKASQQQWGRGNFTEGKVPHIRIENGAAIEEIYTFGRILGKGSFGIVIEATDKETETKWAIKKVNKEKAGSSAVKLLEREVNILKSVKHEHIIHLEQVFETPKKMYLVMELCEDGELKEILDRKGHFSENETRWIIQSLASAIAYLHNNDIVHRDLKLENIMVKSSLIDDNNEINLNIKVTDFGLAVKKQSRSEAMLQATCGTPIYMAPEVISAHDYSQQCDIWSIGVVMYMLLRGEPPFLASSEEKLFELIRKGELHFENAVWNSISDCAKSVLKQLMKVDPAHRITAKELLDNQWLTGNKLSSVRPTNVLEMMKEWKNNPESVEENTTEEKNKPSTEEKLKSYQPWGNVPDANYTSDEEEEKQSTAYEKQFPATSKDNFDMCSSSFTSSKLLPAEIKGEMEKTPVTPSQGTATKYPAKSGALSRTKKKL
UniProt P15735, sequence (whole entry, looked up): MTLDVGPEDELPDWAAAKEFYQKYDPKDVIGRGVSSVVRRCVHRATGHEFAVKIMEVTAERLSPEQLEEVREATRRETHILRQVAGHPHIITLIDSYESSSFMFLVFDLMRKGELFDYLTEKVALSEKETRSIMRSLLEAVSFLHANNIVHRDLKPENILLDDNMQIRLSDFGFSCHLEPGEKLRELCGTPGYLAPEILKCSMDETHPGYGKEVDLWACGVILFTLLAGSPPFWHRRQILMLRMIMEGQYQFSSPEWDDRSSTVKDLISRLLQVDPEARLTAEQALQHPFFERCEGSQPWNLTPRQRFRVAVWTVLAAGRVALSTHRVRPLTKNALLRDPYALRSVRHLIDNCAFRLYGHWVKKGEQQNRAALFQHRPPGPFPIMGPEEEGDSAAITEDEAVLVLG
UniProt P06239, sequence (whole entry, looked up): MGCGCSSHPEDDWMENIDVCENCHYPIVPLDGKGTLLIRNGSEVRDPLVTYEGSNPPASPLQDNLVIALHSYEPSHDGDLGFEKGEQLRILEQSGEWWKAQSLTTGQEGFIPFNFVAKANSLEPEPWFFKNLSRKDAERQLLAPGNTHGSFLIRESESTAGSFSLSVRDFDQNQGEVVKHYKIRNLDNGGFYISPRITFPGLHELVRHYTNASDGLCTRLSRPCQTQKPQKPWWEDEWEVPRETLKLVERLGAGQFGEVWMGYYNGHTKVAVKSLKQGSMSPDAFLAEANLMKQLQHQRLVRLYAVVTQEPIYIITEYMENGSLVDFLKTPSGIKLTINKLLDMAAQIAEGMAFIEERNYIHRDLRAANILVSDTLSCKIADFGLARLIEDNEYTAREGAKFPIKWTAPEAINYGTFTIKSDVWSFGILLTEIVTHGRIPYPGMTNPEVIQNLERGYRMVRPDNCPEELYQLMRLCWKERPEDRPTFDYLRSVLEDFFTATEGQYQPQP
UniProt Q9NWZ3, sequence (whole entry, looked up): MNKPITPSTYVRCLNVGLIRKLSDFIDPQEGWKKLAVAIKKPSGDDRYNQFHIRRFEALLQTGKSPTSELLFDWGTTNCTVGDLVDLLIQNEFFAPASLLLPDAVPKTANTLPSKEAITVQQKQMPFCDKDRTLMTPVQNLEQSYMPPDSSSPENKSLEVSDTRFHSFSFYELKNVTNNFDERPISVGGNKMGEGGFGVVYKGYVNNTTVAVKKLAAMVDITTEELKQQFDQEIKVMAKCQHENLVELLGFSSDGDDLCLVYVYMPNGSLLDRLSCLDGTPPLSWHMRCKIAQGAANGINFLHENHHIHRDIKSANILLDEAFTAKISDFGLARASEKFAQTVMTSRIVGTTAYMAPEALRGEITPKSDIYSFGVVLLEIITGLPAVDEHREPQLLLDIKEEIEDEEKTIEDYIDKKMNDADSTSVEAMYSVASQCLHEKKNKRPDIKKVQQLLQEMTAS
UniProt P51957, sequence (whole entry, looked up): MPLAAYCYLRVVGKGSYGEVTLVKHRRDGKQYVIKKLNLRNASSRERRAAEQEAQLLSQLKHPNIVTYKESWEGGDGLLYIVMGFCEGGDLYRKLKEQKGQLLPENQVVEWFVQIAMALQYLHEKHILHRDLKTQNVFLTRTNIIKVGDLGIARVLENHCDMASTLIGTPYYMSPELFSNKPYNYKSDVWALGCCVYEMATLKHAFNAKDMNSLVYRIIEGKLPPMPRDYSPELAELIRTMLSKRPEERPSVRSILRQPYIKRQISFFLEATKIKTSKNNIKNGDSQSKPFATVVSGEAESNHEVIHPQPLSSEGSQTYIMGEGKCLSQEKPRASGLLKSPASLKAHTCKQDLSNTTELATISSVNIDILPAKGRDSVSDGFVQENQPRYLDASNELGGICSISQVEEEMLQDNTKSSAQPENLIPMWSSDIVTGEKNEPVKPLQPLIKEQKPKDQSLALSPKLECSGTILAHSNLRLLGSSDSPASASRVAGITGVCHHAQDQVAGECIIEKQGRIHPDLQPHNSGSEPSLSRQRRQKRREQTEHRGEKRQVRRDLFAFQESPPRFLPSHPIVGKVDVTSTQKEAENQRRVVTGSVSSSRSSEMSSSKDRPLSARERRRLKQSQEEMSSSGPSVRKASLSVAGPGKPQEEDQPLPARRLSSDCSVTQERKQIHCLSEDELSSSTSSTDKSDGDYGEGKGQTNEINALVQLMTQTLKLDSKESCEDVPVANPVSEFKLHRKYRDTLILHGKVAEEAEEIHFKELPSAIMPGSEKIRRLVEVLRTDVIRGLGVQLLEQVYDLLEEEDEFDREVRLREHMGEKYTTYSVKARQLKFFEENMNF

Set 1
Organism: Plasmodium berghei
Mode: inhibitor
Cells: Huh-7
Strain: liver stage
Concentration: 10 µM
Time: 24 h
Baseline: untreated control
The infection rate of `CC(=O)OCC(CCn1cnc2cnc(N)nc21)COC(C)=O` is reported as 91.7%.
The infection rate of `Oc1ccc(OCc2ccccc2)cc1` is reported as 84.6%.
For `NC(=O)c1ccc[n+]([C@@H]2O[C@H](COP(=O)([O-])OP(=O)(O)OC[C@H]3O[C@@H](n4cnc5c(N)ncnc54)[C@H](O)[C@@H]3O)[C@@H](O)[C@H]2O)c1`, the infection rate was 114%.
The infection rate of `Cc1cc(-c2ccccc2)nnc1NCCN1CCOCC1` is reported as 104%.
For `CCOc1ccc2nc(S(N)(=O)=O)sc2c1`, the infection rate was 117%.

Set 2
SMILES: N#CC(c1ccnc(NCCc2cccnc2)n1)c1nc2ccccc2s1 (stereo not shown)
Read-out: enzyme activity
Mode: inhibitor
Concentration: 0.5 µM
Baseline: control
For IRAK4 (Homo sapiens, UniProt Q9NWZ3): remaining activity read 83.7%.
It gave 83.4% for remaining activity (LRRK2 (Homo sapiens, UniProt Q5S007)).
MAPK12 (Homo sapiens, UniProt P53778) — remaining activity: 96.7%.
The remaining activity was 94.4% (PRKCI (Homo sapiens, UniProt P41743)).
It gave 89.1% for remaining activity (NEK4 (Homo sapiens, UniProt P51957)).
The remaining activity was 92.2% (PRKCD (Homo sapiens, UniProt Q05655)).

Set 3
SMILES: COc1ccc2c(O[C@@H]3C[C@H]4C(=O)N[C@]5(C(=O)O)CC5/C=C\CCCCC[C@H](NC(=O)OC5CCCC5)C(=O)N4C3)cc(-c3csc(NC(=O)C(C)C)n3)nc2c1C (stereo partly shown)
Read-out: cell-free assay
Method: competition with immobilised ligand
Concentration: 1 µM
PAK4 (Homo sapiens, UniProt O96013) — remaining binding: 99%.
The remaining binding was 100% (MAPK14 (Homo sapiens, UniProt Q16539)).
For RIOK2 (Homo sapiens, UniProt Q9BVS4): remaining binding read 100%.
AKT3 (Homo sapiens, UniProt Q9Y243) — remaining binding: 93%.
GRK7 (Homo sapiens, UniProt Q8WTQ7) — remaining binding: 87%.
Ribosomal protein S6 kinase alpha-1, N-terminal kinase domain (RPS6KA1, Homo sapiens, UniProt Q15418) — remaining binding: 74%.
The remaining binding was 100% (CAMKK1 (Homo sapiens, UniProt Q8N5S9)).
LCK (Homo sapiens, UniProt P06239) — remaining binding: 100%.
The remaining binding was 91% (MAPK12 (Homo sapiens, UniProt P53778)).
It gave 93% for remaining binding (MAP3K10 (Homo sapiens, UniProt Q02779)).
PDPK1 (Homo sapiens, UniProt O15530) — remaining binding: 99%.
The remaining binding was 54% (STK33 (Homo sapiens, UniProt Q9BYT3)).
The remaining binding was 100% (COQ8B (Homo sapiens, UniProt Q96D53)).
It gave 95% for remaining binding (MARK3 (Homo sapiens, UniProt P27448)).
For PHKG2 (Homo sapiens, UniProt P15735): remaining binding read 100%.

Set 4
Read-out: AlphaScreen signal
Method: AlphaScreen counter screen
Medium: His6 peptide without bromodomain
Concentration: 50 µM
Notes: assay interference check
For `N#CC(=Cc1ccc(O)c(O)c1)C(=O)Nc1ccccc1`, the inhibition was 33%.
`O=C1NC(=O)c2c1c1c3ccccc3[nH]c1c1[nH]c3cc(Br)ccc3c21` gave an inhibition of 37.8%.
`O=C1Nc2ccc(Br)cc2/C1=C/c1cc2c([nH]1)CCCC2` has an inhibition of 51%.
For `COC(=O)c1ccc2c(c1)NC(=O)/C2=C(\Nc1ccc(N(C)C(=O)CN2CCN(C)CC2)cc1)c1ccccc1`, the inhibition was 27.1%.
The inhibition of `O=C(O)Cc1csc(NC(=O)c2ccc(Br)cc2)n1` is reported as 19.9%.

For quick reference, copied from above (set 3):
PDPK1 (Homo sapiens, UniProt O15530) — remaining binding: 99%.
The remaining binding was 54% (STK33 (Homo sapiens, UniProt Q9BYT3)).
